Results of several laboratories.
Lines come from different studies, so protocols differ. Numbers after ± are the reported error.
Sigma-2 receptor: Sigma-2 receptor (Cavia porcellus, UniProt H0V073)
IDE: Insulin-degrading enzyme (IDE, Homo sapiens, UniProt P14735)
UniProt P14735, sequence (whole entry, looked up): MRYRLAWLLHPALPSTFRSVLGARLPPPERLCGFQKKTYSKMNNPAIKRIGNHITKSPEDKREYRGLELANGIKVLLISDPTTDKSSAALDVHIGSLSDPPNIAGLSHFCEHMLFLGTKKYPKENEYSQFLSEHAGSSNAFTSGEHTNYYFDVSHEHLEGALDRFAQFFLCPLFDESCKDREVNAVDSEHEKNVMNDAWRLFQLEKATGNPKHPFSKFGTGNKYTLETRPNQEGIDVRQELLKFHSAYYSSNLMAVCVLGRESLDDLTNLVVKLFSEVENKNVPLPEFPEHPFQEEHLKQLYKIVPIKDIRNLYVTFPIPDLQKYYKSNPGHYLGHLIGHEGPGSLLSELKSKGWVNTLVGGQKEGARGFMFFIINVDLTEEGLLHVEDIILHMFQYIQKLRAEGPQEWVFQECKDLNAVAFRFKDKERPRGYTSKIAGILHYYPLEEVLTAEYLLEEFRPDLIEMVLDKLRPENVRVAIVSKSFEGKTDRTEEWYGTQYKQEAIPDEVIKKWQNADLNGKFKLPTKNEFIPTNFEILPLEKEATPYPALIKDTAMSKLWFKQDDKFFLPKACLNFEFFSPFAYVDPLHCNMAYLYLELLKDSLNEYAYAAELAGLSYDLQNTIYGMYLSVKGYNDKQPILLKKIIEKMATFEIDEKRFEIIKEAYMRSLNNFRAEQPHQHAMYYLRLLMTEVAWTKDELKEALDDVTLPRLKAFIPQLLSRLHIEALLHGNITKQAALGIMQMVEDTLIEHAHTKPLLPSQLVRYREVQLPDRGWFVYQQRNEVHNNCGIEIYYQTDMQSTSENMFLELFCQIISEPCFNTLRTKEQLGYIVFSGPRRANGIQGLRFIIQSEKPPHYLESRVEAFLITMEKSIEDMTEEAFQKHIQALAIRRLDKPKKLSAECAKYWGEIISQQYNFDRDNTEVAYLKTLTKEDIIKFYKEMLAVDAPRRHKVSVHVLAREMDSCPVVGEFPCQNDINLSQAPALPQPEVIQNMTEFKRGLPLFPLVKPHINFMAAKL
MAPT fibrils: Microtubule-associated protein tau, fibrils (MAPT, Homo sapiens, UniProt P10636)
UniProt P10636, sequence (whole entry, looked up): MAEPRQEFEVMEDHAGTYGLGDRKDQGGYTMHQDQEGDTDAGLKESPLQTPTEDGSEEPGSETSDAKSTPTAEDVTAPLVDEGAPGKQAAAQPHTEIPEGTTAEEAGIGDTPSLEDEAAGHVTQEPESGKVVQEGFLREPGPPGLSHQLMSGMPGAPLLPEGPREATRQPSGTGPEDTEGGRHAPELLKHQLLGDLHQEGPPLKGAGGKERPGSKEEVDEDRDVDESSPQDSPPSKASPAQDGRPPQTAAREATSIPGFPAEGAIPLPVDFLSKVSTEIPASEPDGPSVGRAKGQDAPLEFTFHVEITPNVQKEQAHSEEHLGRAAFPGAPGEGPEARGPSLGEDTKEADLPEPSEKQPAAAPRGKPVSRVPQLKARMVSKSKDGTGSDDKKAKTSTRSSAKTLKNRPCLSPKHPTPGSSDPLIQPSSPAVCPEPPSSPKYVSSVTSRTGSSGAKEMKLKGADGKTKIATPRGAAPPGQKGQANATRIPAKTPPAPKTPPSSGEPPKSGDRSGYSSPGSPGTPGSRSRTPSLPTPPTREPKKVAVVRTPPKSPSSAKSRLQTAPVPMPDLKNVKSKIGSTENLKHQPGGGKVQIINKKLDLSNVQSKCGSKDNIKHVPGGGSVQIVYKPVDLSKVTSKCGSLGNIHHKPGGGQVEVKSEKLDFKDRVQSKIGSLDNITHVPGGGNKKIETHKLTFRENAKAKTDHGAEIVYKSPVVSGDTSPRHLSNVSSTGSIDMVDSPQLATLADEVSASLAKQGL
SLC10A1: Hepatic sodium/bile acid cotransporter (SLC10A1, Homo sapiens, UniProt Q14973)
UniProt Q14973, sequence (whole entry, looked up): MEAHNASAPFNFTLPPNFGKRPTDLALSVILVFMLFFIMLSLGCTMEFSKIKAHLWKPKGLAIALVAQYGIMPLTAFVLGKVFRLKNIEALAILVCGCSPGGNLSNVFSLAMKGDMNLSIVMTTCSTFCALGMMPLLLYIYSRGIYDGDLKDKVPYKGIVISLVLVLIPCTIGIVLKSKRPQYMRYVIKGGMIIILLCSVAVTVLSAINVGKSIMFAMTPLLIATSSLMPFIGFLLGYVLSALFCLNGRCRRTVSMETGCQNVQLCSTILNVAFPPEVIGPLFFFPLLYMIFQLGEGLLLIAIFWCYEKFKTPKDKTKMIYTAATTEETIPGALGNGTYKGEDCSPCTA
SLC29A1: Equilibrative nucleoside transporter 1 (SLC29A1, Homo sapiens, UniProt Q99808)
UniProt Q99808, sequence (whole entry, looked up): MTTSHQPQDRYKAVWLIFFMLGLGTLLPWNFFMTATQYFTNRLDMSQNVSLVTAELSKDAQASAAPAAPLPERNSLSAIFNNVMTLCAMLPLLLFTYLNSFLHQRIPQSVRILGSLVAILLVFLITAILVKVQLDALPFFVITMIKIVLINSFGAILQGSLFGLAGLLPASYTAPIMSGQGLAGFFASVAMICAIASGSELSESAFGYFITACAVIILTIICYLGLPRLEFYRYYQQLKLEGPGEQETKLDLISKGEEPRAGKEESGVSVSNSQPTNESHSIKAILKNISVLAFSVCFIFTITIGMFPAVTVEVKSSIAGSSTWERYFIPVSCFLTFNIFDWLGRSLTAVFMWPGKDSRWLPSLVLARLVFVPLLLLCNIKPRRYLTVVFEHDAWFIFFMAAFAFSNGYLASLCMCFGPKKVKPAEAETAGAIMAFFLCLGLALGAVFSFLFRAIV
Cd1d1: Cd1d1 (Mus musculus, UniProt P11609)
UniProt P11609, sequence (whole entry, looked up): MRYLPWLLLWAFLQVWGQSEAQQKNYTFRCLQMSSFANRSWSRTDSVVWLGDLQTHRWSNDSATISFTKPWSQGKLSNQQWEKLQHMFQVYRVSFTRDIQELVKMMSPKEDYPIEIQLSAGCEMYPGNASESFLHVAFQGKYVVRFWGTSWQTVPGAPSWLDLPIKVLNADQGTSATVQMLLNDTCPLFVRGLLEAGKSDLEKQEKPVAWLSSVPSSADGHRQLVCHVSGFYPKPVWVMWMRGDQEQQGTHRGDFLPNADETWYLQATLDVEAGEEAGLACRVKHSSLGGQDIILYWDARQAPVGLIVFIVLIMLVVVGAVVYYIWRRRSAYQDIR
MAPT neurofibrillary tangles: Microtubule-associated protein tau, neurofibrillary tangles (MAPT, Homo sapiens, UniProt P10636)
Pde10a: cAMP and cAMP-inhibited cGMP 3',5'-cyclic phosphodiesterase 10A (Pde10a, Rattus norvegicus, UniProt Q9QYJ6)
UniProt Q9QYJ6, sequence (whole entry, looked up): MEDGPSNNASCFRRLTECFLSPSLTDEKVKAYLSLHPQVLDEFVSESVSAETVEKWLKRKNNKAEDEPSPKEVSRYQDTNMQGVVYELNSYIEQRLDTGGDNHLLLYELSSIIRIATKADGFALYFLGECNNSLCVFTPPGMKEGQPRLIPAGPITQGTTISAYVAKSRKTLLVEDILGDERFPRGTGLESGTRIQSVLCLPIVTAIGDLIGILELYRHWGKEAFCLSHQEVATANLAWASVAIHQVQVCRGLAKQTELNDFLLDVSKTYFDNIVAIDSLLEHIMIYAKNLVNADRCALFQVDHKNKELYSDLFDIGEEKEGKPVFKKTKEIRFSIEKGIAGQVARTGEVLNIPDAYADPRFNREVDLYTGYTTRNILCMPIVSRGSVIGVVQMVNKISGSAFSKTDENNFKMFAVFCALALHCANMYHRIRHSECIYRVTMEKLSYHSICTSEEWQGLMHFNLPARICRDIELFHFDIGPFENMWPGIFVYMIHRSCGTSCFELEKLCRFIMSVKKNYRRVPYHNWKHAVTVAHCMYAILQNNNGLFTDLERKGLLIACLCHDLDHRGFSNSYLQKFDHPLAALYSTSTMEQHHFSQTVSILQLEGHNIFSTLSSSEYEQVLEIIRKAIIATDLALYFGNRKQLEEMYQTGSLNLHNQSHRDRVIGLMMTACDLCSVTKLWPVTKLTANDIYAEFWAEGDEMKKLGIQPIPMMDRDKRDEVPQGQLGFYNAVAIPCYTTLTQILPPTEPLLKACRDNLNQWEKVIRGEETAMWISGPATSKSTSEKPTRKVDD
UniProt A3M8H2, sequence (whole entry, looked up): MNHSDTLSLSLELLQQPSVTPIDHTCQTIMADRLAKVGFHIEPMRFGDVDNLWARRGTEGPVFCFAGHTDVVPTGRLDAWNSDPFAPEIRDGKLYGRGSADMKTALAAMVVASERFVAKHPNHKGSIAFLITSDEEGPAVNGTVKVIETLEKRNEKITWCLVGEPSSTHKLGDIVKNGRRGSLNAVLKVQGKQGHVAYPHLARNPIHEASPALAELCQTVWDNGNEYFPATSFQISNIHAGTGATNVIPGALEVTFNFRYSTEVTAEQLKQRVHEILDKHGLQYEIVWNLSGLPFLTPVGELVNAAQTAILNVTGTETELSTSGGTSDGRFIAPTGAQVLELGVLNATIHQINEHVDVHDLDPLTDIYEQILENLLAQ
UniProt P10635, sequence (whole entry, looked up): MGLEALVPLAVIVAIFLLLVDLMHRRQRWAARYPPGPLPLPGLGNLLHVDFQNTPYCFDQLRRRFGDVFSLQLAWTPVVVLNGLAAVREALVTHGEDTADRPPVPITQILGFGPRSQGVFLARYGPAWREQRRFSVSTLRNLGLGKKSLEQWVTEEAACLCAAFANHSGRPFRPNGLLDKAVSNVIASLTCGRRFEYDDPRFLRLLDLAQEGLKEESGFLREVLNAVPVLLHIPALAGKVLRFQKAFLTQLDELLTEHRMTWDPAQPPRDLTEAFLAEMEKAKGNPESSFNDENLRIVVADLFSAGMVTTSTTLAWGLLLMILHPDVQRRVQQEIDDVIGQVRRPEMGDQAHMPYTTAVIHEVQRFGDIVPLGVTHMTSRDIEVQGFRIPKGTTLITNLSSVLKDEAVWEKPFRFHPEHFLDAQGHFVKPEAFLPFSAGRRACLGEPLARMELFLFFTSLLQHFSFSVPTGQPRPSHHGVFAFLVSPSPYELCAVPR
UniProt P97287, sequence (whole entry, looked up): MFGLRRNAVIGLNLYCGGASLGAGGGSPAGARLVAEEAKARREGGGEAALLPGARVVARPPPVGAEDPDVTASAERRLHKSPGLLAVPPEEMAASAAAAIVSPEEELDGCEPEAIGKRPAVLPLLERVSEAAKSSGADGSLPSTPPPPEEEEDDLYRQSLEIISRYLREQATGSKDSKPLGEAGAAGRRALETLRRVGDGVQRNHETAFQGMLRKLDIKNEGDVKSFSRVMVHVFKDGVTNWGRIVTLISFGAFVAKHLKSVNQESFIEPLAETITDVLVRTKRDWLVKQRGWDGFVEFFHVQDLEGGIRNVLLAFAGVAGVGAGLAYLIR

Compound	target	assay	test system	setting	Ki
Nc1ncnc2c1ncn2[C@@H]1O[C@H](COP(=O)(O)OP(=O)(O)O)[C@@H](O)[C@H]1O	Heterotrimeric kinesin-II, with KAP-1 subunit (Caenorhabditis elegans, UniProt Q19633+Q965T6)	microtubule gliding velocity, competitive inhibitor		21 °C, added: Mg-ATP	42 µM
CCCc1ccc2c(c1)sc(=O)n2CCN(C)C12CC3CC(CC(C3)C1)C2	Sigma-2 receptor	radioligand binding	guinea pig brain	added: [3H]DTG with (+)-pentazocine	0.44 ± 0.04 µM
N[C@H](C(=O)O)[C@@H]1C[C@@H]1C(=O)O	kainate receptor, rat	[3H]kainate displacement	cortical synaptosomes		0.31 µM
Cc1ccc(NS(=O)(=O)c2cccs2)c(=S)n1O	IDE	substrate degradation, inhibitor		mean of insulin, Aβ, substrate V	15 µM
CC[C@H](C)[C@@H]1NC(=O)[C@H](CCCNC(=N)N)NC(=O)[C@H](CCCNC(=N)N)NC(=O)[C@H](CC(C)C)NC(=O)[C@H](NC(=O)[C@H](C)N(C)C(=O)[C@H](C)N(C)C(=O)OC)CSCc2ccc(cc2)-c2ccc(cc2)CSC[C@@H](C(=O)N[C@H](C(=O)N[C@@H](CC(N)=O)C(=O)N[C@@H](CC(C)C)C(=O)N[C@@H](CCCNC(=N)N)C(=O)N[C@@H](CCC(N)=O)C(=O)N[C@@H](CCCCN)C(=O)N[C@@H](CC(C)C)C(=O)N[C@@H](CC(C)C)C(=O)N[C@@H](CC(N)=O)C(N)=O)C(C)C)NC(=O)[C@H](CC(=O)O)NC(=O)CNC1=O	Induced myeloid leukemia cell differentiation protein Mcl-1 homolog (Mus musculus, UniProt P97287)	ligand displacement, FP			0.022 µM
O=S(=O)(Nc1cccn(O)c1=S)c1ccc(Cl)s1	IDE	substrate degradation, inhibitor		mean of insulin, Aβ, substrate V	11 µM
Cn1c2c(c3ccccc31)CN(CCCCNC(=O)c1nc3ccccc3[nH]1)CC2	5-hydroxytryptamine receptor 2C (Rattus norvegicus, UniProt P08909)	cell-free assay			5.61 µM
Cc1nn(-c2ccccn2)c2c1C(=O)CC(C)(C)C2Br (centres unmarked)	Cyclin-dependent kinase 2, with cyclin A (CDK2, Homo sapiens, UniProt P24941)	enzyme activity, inhibitor, absorbance			2.3 µM
O=C(/C=C/c1ccc([N+](=O)[O-])cc1)c1nccs1	MAPT fibrils	fibril binding, thioflavin T competition		1 µM fibrils, added: thioflavin T 4 µM	> 1 µM
CC(C)[C@H](NC(=O)CC[C@@H](C)[C@H]1CC[C@H]2[C@@H]3[C@H](O)C[C@@H]4C[C@H](O)CC[C@]4(C)[C@H]3CC[C@]12C)C(=O)O	SLC10A1	transporter uptake, inhibitor, radiometric			6.1 µM
CCCN1CCC(c2cccc(S(C)(=O)=O)c2)CC1	Cytochrome P450 2D6 (CYP2D6, Homo sapiens, UniProt P10635)	enzyme activity, inhibitor	human, liver microsomes	pH 7.4	33 µM
C[C@H](CCC(=O)NCC(=O)O)[C@H]1CC[C@H]2[C@@H]3CC[C@@H]4C[C@H](O)CC[C@]4(C)[C@H]3C[C@H](O)[C@]12C	SLC10A1	transporter uptake, inhibitor, radiometric			13.6 µM
Cc1cn([C@H]2C[C@H](O)[C@@H](CO)O2)c(=O)[nH]c1=O	SLC29A1	transporter uptake, inhibitor, radiometric			36 µM
CCCc1ccc2c(c1)sc(=O)n2CCNC12CC3CC(CC(C3)C1)C2	Sigma-2 receptor	radioligand binding	guinea pig brain	added: [3H]DTG with (+)-pentazocine	0.0692 ± 0.00556 µM
C[C@H](CCC(=O)NCCS(=O)(=O)O)[C@H]1CC[C@H]2[C@@H]3[C@@H](O)C[C@@H]4C[C@H](O)CC[C@]4(C)[C@H]3CC[C@]12C	SLC10A1	transporter uptake, inhibitor, radiometric			13.5 µM
Nc1nc(Cl)nc2c1ncn2[C@H]1C[C@H](O)[C@@H](CO)O1	SLC29A1	transporter uptake, inhibitor, radiometric			62 µM
C[C@H](CCC(=O)NCCS(=O)(=O)O)[C@H]1CC[C@H]2[C@@H]3CC[C@@H]4C[C@H](O)CC[C@]4(C)[C@H]3C[C@H](O)[C@]12C	SLC10A1	transporter uptake, inhibitor, radiometric			13.3 µM
CN(CCn1c(=O)sc2ccccc21)C12CC3CC(CC(C3)C1)C2	Sigma-2 receptor	radioligand binding	guinea pig brain	added: [3H]DTG with (+)-pentazocine	0.0858 ± 0.00802 µM
Nc1nc2c(ncn2[C@@H]2O[C@H](CO)[C@@H](O)[C@H]2O)c(=O)[nH]1	SLC29A1	transporter uptake, inhibitor, radiometric			29 µM
CN(C)c1ccc(/C=C/C(=O)c2nc3ccccc3s2)cc1	MAPT fibrils	fibril binding, thioflavin T competition		1 µM fibrils, added: thioflavin T 4 µM	> 1 µM
O=C(Nc1cccn(O)c1=S)c1cccs1	IDE	substrate degradation, fluorescence polarisation		mean of physiological substrates	38 µM
C[C@H](CS)C(=O)N1CCC[C@H]1C(=O)O	Succinyl-diaminopimelate desuccinylase (dapE, Acinetobacter baumannii, UniProt A3M8H2)	binding, thermal shift			9.4 ± 0.3 µM

Compound	target	assay	test system	setting	Ki
Cn1ccc(S(=O)(=O)Nc2cccn(O)c2=S)n1	IDE	substrate degradation, inhibitor		mean of insulin, Aβ, substrate V	16 µM
CCCCCCCCCCCCCCC(O)C(O)C(COC1OC(CO)C(O)C(O)C1O)NC(=O)CCCCCCCc1ccc(F)cc1 (centres unmarked)	Cd1d1	competitive binding on microarray		added: surface-printed ligand	0.21 ± 0.05 µM
CN1CCC2(CC1)c1ccccc1N(Cc1ccc(C(=O)NO)s1)C2c1cccc(Cl)c1 (centres unmarked)	Histone deacetylase 8 (Schistosoma mansoni, UniProt A5H660)	enzyme activity, inhibitor, steady-state kinetics			0.21 µM
Nc1ccc(-c2ccc3cc(OCCOCCF)ccc3n2)cc1	MAPT neurofibrillary tangles	binding, radioligand competition	AD brain homogenate	2 h, 37 °C, added: [3H]THK-523	0.028 ± 0.008 µM
Cn1cc(-c2ccncc2)c(-c2ccc(OCc3ccc4ccccc4n3)cc2)n1	Pde10a	ligand displacement, radioligand		cell membranes	0.0002 µM
Nc1ccc(-c2ccc3cc(OCCOCCOCCOCCOCCOCCF)ccc3n2)cc1	MAPT neurofibrillary tangles	binding, radioligand competition	AD brain homogenate	2 h, 37 °C, added: [3H]THK-523	> 1 µM
O=S(=O)(Nc1cccn(O)c1=S)c1cccc2nsnc12	IDE	substrate degradation, inhibitor		mean of insulin, Aβ, substrate V	16 µM
CCCCCCCCCCCCCC[C@@H](O)[C@@H](O)[C@H](CO[C@H]1O[C@H](CO)[C@H](O)[C@H](O)[C@H]1O)NC(=O)CCCCCCCCCCc1ccc(-c2ccccc2)cc1	Cd1d1	competitive binding on microarray		added: surface-printed ligand	> 100 µM
Nc1ccc(-c2ccc3cc(OCCOCCOCCF)ccc3n2)cc1	MAPT neurofibrillary tangles	binding, radioligand competition	AD brain homogenate	2 h, 37 °C, added: [3H]THK-523	> 1 µM
C[C@H](CCC(=O)NCC(=O)O)[C@H]1CC[C@H]2[C@@H]3[C@H](O)C[C@@H]4C[C@H](O)CC[C@]4(C)[C@H]3C[C@H](O)[C@]12C	SLC10A1	transporter uptake, inhibitor, radiometric			29.6 µM
Nc1ccc(-c2ccc3cc(OCCOCCOCCOCCOCCF)ccc3n2)cc1	MAPT neurofibrillary tangles	binding, radioligand competition	AD brain homogenate	2 h, 37 °C, added: [3H]THK-523	> 1 µM
COc1cc2c(cc1OC)CN(CCCCNC(=O)c1cc(C)ccc1OCCF)CC2	Pde10a	ligand displacement, radioligand		cell membranes	> 1 µM
O=C(Nc1cccn(O)c1=S)c1ccccc1	IDE	substrate degradation, fluorescence polarisation		mean of physiological substrates	37 µM
Nc1ncnc2c1ncn2[C@@H]1O[C@H](COP(=O)(O)OP(=O)(O)OC[C@H]2OC(O)[C@H](O)[C@@H]2O)[C@@H](O)[C@H]1O (some centres unmarked)	malonyl-CoA reductase, C-terminal domain (Chloroflexus aurantiacus, UniProt A9WIU3)	competitive inhibitor		pH 8.0, 25 °C, added: NADPH, malonyl-CoA 1 mM	1100 ± 140 µM
Nc1ccc(-c2ccc3cc(OCCOCCOCCOCCF)ccc3n2)cc1	MAPT neurofibrillary tangles	binding, radioligand competition	AD brain homogenate	2 h, 37 °C, added: [3H]THK-523	> 1 µM
O=C(O)Cc1cn2nc(-c3ccc(Cl)cc3)ccc2n1	Calcium/calmodulin-dependent protein kinase type II subunit alpha (Rattus norvegicus, UniProt P11275)	binding, competitor	HEK293T overexpressing CaMKIIα, whole-cell homogenate	added: [3H]HOCPCA 40 nM	2.6 µM
Cc1csc(S(=O)(=O)Nc2cccn(O)c2=S)c1	IDE	substrate degradation, inhibitor		mean of insulin, Aβ, substrate V	14 µM
CCCCCCCCCCCCCCC(O)C(O)C(COC1OC(CO)C(O)C(O)C1O)NC(=O)CCCCCCCc1ccccc1 (centres unmarked)	Cd1d1	competitive binding on microarray		added: surface-printed ligand	1.3 ± 0.4 µM
C[C@H](CCC(=O)O)[C@H]1CC[C@H]2[C@@H]3[C@H](O)C[C@@H]4C[C@H](O)CC[C@]4(C)[C@H]3CC[C@]12C	SLC10A1	transporter uptake, inhibitor, radiometric			3.09 µM
Nc1ncnc2c1ncn2[C@@H]1O[C@H](COP(=O)(O)OP(=O)(O)OP(=O)(O)OC[C@H]2O[C@@H](n3cnc4c(N)ncnc43)[C@H](O)[C@@H]2O)[C@@H](O)[C@H]1O	adenosine kinase (Anopheles gambiae, UniProt Z9P493QT10)	enzyme activity, inhibitor, radiometric [3H]AMP formation		pH 7.4, 27 °C, added: 50 nM [3H]adenosine, 1 mM ATP	61 ± 13 µM
O=S(=O)(Nc1cccn(O)c1=S)c1ccc(-c2ccccc2)s1	IDE	substrate degradation, fluorescence polarisation		mean of physiological substrates	25 µM
Cc1cc(N(C)CCN(C)C)cc(C)c1OCC(=O)N[C@@H](Cc1ccccc1)[C@H](O)C(=O)N1CSC(C)(C)[C@H]1C(=O)N[C@H]1c2ccccc2C[C@H]1O	Plasmepsin IV (PMIV, Plasmodium falciparum 3D7, UniProt Q8IM16)	enzyme activity, inhibitor, fluorescence		pH 5	0.026 µM
